Earlier results that unrelated publications cite.
Compare with care: the assays were run in different laboratories. Several values in a cell are separate wells, animals, samples, runs or records. ± marks the error that the study gave.
Sequence of UniProt P35367 (whole entry, looked up): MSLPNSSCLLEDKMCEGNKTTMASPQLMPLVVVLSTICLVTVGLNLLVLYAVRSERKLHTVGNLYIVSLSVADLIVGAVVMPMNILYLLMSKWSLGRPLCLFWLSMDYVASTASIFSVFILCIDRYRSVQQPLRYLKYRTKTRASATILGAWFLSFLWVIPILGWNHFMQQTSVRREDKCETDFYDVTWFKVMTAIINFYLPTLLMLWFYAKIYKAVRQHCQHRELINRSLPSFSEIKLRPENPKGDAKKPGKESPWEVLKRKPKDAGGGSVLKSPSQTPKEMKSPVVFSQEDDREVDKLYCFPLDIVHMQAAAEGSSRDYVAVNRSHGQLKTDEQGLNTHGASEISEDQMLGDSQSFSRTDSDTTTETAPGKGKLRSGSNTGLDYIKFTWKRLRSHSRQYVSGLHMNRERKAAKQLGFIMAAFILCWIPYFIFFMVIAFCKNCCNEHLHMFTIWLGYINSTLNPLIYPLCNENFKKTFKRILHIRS
Sequence of UniProt P40337 (whole entry, unmodified, looked up): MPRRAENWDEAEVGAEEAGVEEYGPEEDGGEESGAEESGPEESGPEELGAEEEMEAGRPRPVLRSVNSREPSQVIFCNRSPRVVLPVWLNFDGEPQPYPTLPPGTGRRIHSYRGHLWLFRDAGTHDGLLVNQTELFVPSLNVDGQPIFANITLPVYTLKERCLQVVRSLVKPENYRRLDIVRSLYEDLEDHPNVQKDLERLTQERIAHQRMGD

The IC50 of `O=C(C=C(O)C(F)(F)C(F)(F)F)c1cccnc1` is reported as 0.11 ± 0.01 µM (Plasmodium falciparum formate-nitrite transporter; L-lactate transport, inhibitor, radiolabelled uptake; yeast).
With `CC(C)=CCCC(C)=CCCn1cc(CC(P(=O)(O)O)P(=O)(O)O)nn1` the IC50 was 0.045 µM (geranylgeranyl diphosphate synthase; enzyme activity, inhibitor).
The IC50 of `O=C(CCCc1ccccc1)NC1CCOC1=O` (stereo not drawn) is reported as 2 µM (LuxR; reporter gene, luxI-luxCDABE reporter).
The IC50 of `C[C@H](CN(C)Cc1ccccc1)NC(=O)c1ccc(-c2noc(C(F)(F)F)n2)cc1` is reported as 0.0012 ± 0.00017 µM (HDAC5).
The IC50 of `CN(CCN)Cc1ccccc1Sc1ccccc1Cl` is reported as 0.0053 µM (PRMT1; enzyme activity, inhibitor, radiometric).
For `c1ccc2c(c1)CCCNC2c1c[nH]c2ncccc12` (stereo not drawn), the IC50 was 68.5 µM and 50 to 80 µM (COLO 320 ABCB1-resistant colon; cytotoxicity).
`COc1ccc(Nc2nc(Nc3ccc(OCC[18F])cc3)ncc2Br)cc1` — result for “tumour to tissue ratio”: 0.55 (S180 tumour-bearing mice; intravenous, 5 min; reference: tumour over blood).
`Cn1nnnc1Sc1ncnc2scc(-c3cccc(S(C)(=O)=O)c3)c12` gave an IC50 of 16 µM (PI5P4Kγ; inhibitor).
For `COc1ccc(C)cc1S(=O)(=O)Nc1ccc(Cl)c(N2CCCS2(=O)=O)c1`, the IC50 was ~1 µM (urea transporter UT-A1; inhibitor).
`O=C(CCc1ccc(C(F)(F)F)cc1)N[C@H]1CCOC1=O` gave an IC50 of 0.2 µM (TraR, Agrobacterium tumefaciens; reporter gene, antagonist, traI-lacZ reporter).
With `COc1cc2ncc3[nH]c(=O)n([C@H](C)c4ccccn4)c3c2cc1-c1c(C)noc1C` the IC50 was 0.25 µM (BRD3).
`Cc1cc(NC2CCN(C(=O)OC3CCN(C(=O)/C=C/CN(C)C)C3)CC2)n2ncc(C(C)C)c2n1` (stereo not drawn) gave an IC50 of 0.0928 µM (CDK7; inhibitor).
The log KH1 of `O=C(O)CN1CCNCCN(CC(=O)O)Cc2cccc(n2)C1` is reported as 12.2 (protonation constant; 0.15 M NaCl).
The IC50 of `CS(=O)(=O)Nc1ccc(-c2cncc(-c3cccc4cc[nH]c34)c2)cc1` is reported as 2 µM (PI5P4Kα; inhibitor).
`N#CN=C(NCc1ccc(S(=O)(=O)c2cccc(OC(F)(F)F)c2)cc1)Nc1ccncc1` has an IC50 of 0.0044 µM (NAMPT).
The IC50 of `CCCCCCCCCCCCCC(=O)NCC(O)c1ccccc1` (stereo not drawn) is reported as 1.29 µM (acid ceramidase (purified); micellar).
`Cc1cc(C)c(C(=O)N[C@@H](Cc2ccc(N3CCC(CNc4ccccn4)CC3)cc2)C(=O)O)c(C)c1` has an IC50 of 0.173 µM (integrin α5β1; HEK293).
Under “HbA1c at end of treatment”, `Cc1sc(-c2ccc(C(F)(F)F)cc2)nc1-c1nn[nH]c1C#N` is recorded as 9.58 ± 0.14% (ZDF rat; 1 mg/kg/day, 6 weeks).
With `OCCNc1nc(NCCc2ccccc2)c2cnn(/C=C\c3ccccc3)c2n1` the IC50 was 0.6 µM (SGK1; literature value).
`CCc1cccc(Sc2cc(C(=O)N3Cc4ccccc4C3)ccc2O)c1` has an IC50 of 0.46 µM (Hsp90α human).
The IC50 of `CCOC(=O)C(c1cc(Cl)c2cccnc2c1O)c1c[nH]c2ccccc12` (stereo not drawn) is reported as 54.5 µM and 55.1 µM (MRC-5 fibroblasts; cell viability).
The IC50 of `O=C(CCc1ccc(Br)cc1)N[C@H]1CCOC1=O` is reported as 1 µM (LuxR; reporter gene, luxI-luxCDABE reporter).
`O=c1ccc(OCCCN2CCCCC2)nn1-c1ccc(Cl)c(Cl)c1` has an inhibition of 11.9 ± 1.4% (HRH1 (Homo sapiens, UniProt P35367); 1.0 µM).
The IC50 of `CCCOc1ccc(C=C2C(=O)NN(c3ccccc3)C2=O)c(OCC(O)CC(=O)O)c1C` (stereo not drawn) is reported as 0.0008 µM (P2Y12 receptor; inhibitor; S-enantiomer, literature value).
The IC50 of `O=C(Nc1ccc(OC(F)(F)F)cc1)NC1CCN(C(=O)C2CC2)CC1` is reported as 0.0099 ± 0.0001 µM (soluble epoxide hydrolase (rat); enzyme activity).
For `COc1cccc(-c2cc(F)ccc2[C@H]2Cc3nc(N)nc(C)c3C(=O)N2)n1`, the IC50 was 0.32 µM (TRAP1; inhibitor).
For `FC(F)(F)C(F)(F)c1cc(-c2cccnc2)n[nH]1`, the IC50 was > 1000 µM (Plasmodium falciparum formate-nitrite transporter; L-lactate transport, inhibitor, radiolabelled uptake; yeast).
For `CC1(N(CC(=O)O)CC(=O)O)CN(CC(=O)O)CCN(CC(=O)O)C1`, “protonation constant (log)” read 11.2 (pH-potentiometry, refers to: logK1H; 0.1 M KCl; 25 °C).
The IC50 of `CC(C)NCCCn1c(Sc2cc(Cl)cc(Cl)c2)nc2c(N)ncnc21` is reported as 0.022 µM (Grp94).
With `CCCNc1ccc(C(=O)C=C(O)C(F)(F)C(F)(F)F)cn1` the IC50 was 0.2 ± 0.02 µM (Plasmodium falciparum formate-nitrite transporter; L-lactate transport, inhibitor, radiolabelled uptake; yeast).
`COc1cccc(Cn2cc(-c3cccc(NC(=O)Nc4ccc(Br)cc4)c3)nn2)c1` gave an IC50 of 0.75 µM (IDO1; inhibitor).
The IC50 of `CCc1ccc(-c2cc(C(N)=O)c(NC3CCC(O)CC3)cc2C)cc1` (stereo not drawn) is reported as 0.05 µM (Grp94).
`CC(C)=CCC/C(C)=C/CCn1cc(CC(C)(P(=O)(O)O)P(=O)(O)O)nn1` gave an IC50 of 0.125 µM (geranylgeranyl diphosphate synthase; enzyme activity, inhibitor).
With `Cc1[nH]c(=O)c(CNC(=O)c2cc(Cl)c3c(c2C)O[C@@](C)([C@H]2CC[C@H](N(C)C)CC2)O3)c(C)c1O` the IC50 was 0.026 µM (EZH2; enzyme activity, inhibitor).
The IC50 of `O=C(C=C(O)C(F)(F)C(F)(F)Cl)c1cccnc1` is reported as 0.18 ± 0.03 µM (Plasmodium falciparum formate-nitrite transporter; L-lactate transport, inhibitor, radiolabelled uptake; yeast).
With `Nc1n[nH]c2c1c(Nc1ccc(F)cc1)nc1ccccc12` the IC50 was 0.14 µM (Escherichia coli beta-glucuronidase; enzyme activity).
`CN(C)C/C=C/C(=O)Nc1ccc(C(=O)Nc2cccc(Nc3cc(-c4c[nH]c5ccccc45)ncn3)c2)cc1` has an IC50 of < 0.32 µM (ABL1 kinase; enzyme activity, inhibitor).
`CN(C)CCCOc1ccc2c(c1)CN(C(=O)c1cc(C(=O)N3Cc4cccc(F)c4C3)ccc1O)C2` has an IC50 of > 10 µM (Hsp90α human).
`CNc1ccc(C(=O)C=C(O)C(F)(F)C(F)(F)F)cn1` gave an IC50 of 0.13 ± 0.02 µM (Plasmodium falciparum formate-nitrite transporter; L-lactate transport, inhibitor, radiolabelled uptake; yeast).
The IC50 of `CNc1cccc(CCOc2ccc(C[C@H](NC(=O)c3c(Cl)cccc3Cl)C(=O)O)cc2)n1` is reported as 0.007 µM (integrin α5β1; K562).
For `O=C(CC(=O)N[C@H]1CCOC1=O)Cc1ccccc1`, the IC50 was 2 µM (LuxR; reporter gene, luxI-luxCDABE reporter).
`COc1cccc(CNC(=O)c2ccc3cccc(O)c3n2)c1` has an IC50 of > 50 µM (urea transporter B (UT-B); urea transport, inhibitor).
The IC50 of `CCCc1cc2cc(-n3nc(CC)c4c3CC(C)(C)CC4=O)cc(NC3CCC(O)CC3)c2c(=O)[nH]1` (stereo not drawn) is reported as 0.058 µM (Hsp90β; inhibitor).
The IC50 of `COc1cccc(/C=C2/SC(=N)NC2=O)c1OC` is reported as ~7 µM (urea transporter UT-A1; inhibitor).
`CC(C)(C)Nc1ccc(C(=O)C=C(O)C(F)(F)C(F)(F)F)cn1` has an IC50 of 0.37 ± 0.04 µM (Plasmodium falciparum formate-nitrite transporter; L-lactate transport, inhibitor, radiolabelled uptake; yeast).
`CCCN(C)c1cc(C(F)(F)F)nc(SCCC(=O)NCc2ccco2)n1` has an IC50 of 0.46 µM (TRPV2; inhibitor).
With `O=C(C=C(O)C(F)(F)C(F)(F)F)c1ccc(NCc2ccc(F)cc2)nc1` the IC50 was 0.39 ± 0.03 µM (Plasmodium falciparum formate-nitrite transporter; L-lactate transport, inhibitor, radiolabelled uptake; yeast).
The ΔG of `Cc1ncsc1-c1ccc2c(c1)OCCOCCOC[C@@H](NC(=O)C[C@@H]1N=C(c3ccc(Cl)cc3)c3c(sc(C)c3C)-n3c(C)nnc31)COCCOCCOCC(=O)N[C@@H](C(C)(C)C)C(=O)N1C[C@H](O)C[C@H]1C(=O)NC2` is reported as -41.8 kJ/mol (von Hippel-Lindau disease tumor suppressor, with Elongin B/C (VHL, Homo sapiens, UniProt P40337); isothermal titration calorimetry; VCB titrated into compound).
`O=C(Cc1ccc(Br)cc1)N[C@H]1CCOC1=O` gave an IC50 of 6 µM (TraR; traI-lacZ reporter, inhibitor).
`O=C(C=C(O)C(F)(F)C(F)(F)F)c1ccc(N2CCNCC2)nc1` has an IC50 of 17.3 ± 6.5 µM (Plasmodium falciparum formate-nitrite transporter; L-lactate transport, inhibitor, radiolabelled uptake; yeast).
With `N=C(N)NCCC[C@H](NCc1ccccn1)C(=O)NCc1ccc(CNCCCNC2CCCCC2)cc1` the IC50 was 0.012 µM (CXCR4; binding, competitive binding).

Repeated from above:
The IC50 of `O=C(CCCc1ccccc1)NC1CCOC1=O` (stereo not drawn) is reported as 2 µM (LuxR; reporter gene, luxI-luxCDABE reporter).
The IC50 of `C[C@H](CN(C)Cc1ccccc1)NC(=O)c1ccc(-c2noc(C(F)(F)F)n2)cc1` is reported as 0.0012 ± 0.00017 µM (HDAC5).
The IC50 of `CN(CCN)Cc1ccccc1Sc1ccccc1Cl` is reported as 0.0053 µM (PRMT1; enzyme activity, inhibitor, radiometric).
For `c1ccc2c(c1)CCCNC2c1c[nH]c2ncccc12` (stereo not drawn), the IC50 was 68.5 µM and 50 to 80 µM (COLO 320 ABCB1-resistant colon; cytotoxicity).
`COc1ccc(Nc2nc(Nc3ccc(OCC[18F])cc3)ncc2Br)cc1` — result for “tumour to tissue ratio”: 0.55 (S180 tumour-bearing mice; intravenous, 5 min; reference: tumour over blood).
`Cn1nnnc1Sc1ncnc2scc(-c3cccc(S(C)(=O)=O)c3)c12` gave an IC50 of 16 µM (PI5P4Kγ; inhibitor).
